Published values of several laboratories.
Every numbered part comes from another study and shows a few of its results, in no order. Positions count from the first letter of the parent shown.

Set 1
Target: CCNB3, cyclin fold, Cln2 fusion (human)
Method: yeast growth competition, sequencing
Sample: yeast
Setting: weak parent motif
Reference: not given
Reading: higher = stronger binding
Starting sequence: CDC6 docking peptide (human); TLKGRRLVFDNQL; partner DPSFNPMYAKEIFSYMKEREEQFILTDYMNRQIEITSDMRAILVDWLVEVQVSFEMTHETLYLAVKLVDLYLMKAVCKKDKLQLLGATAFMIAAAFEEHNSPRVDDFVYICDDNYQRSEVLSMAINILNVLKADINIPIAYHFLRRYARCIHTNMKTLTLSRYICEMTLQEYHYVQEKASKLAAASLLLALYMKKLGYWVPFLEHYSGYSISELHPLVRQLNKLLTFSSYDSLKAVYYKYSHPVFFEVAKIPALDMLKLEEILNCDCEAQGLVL
`D10Q` — result for “normalised enrichment score”: 0.365.
For `N11I`, “normalised enrichment score” read 0.175.
Under “normalised enrichment score”, `T1F` is recorded as -0.0336.
Under “normalised enrichment score”, `R6W` is recorded as -0.359.
Under “normalised enrichment score”, `V8I` is recorded as 0.0527.
For `N11S`, “normalised enrichment score” read -0.145.
For `R6L`, “normalised enrichment score” read 0.538.
`R6F` — result for “normalised enrichment score”: -0.179.

Set 2
Substitution: V76F
Target: ABI1, truncated, D143A, DHFR fusion (Arabidopsis thaliana)
Method: DHFR PCA, deep sequencing
Sample: yeast
Setting: methotrexate growth selection, single substitutions
Reference: wild-type fitted maximum
Reading: higher = stronger binding
Starting sequence: PYL1, truncated, DHFR fusion (Arabidopsis thaliana); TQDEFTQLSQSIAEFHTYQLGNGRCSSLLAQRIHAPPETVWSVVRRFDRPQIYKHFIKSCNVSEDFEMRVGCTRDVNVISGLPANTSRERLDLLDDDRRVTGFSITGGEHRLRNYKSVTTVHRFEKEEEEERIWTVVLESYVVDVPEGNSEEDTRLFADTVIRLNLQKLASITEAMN; partner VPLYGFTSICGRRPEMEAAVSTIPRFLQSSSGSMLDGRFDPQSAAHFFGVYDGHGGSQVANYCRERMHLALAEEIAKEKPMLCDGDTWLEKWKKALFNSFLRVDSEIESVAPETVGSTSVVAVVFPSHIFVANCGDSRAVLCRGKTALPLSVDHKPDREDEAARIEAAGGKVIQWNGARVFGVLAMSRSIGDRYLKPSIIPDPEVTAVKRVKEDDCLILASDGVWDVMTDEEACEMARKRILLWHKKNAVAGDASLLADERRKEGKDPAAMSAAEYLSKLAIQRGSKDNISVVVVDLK
added: (+)-ABA 0.39 µM — “relative binding score”: -8.45%.
It gave 2% for “relative binding score” (added: (+)-ABA 58 µM).
For added: (+)-ABA 710 µM: “relative binding score” read 20.4%.
The “relative binding score” was 5.69% (added: (+)-ABA 0.0091 µM).
It gave -0.61% for “relative binding score” (added: (+)-ABA 0.11 µM).
added: (+)-ABA 0 µM — “relative binding score”: 2.05%.

Set 3
Target: Sal-like protein 4, full length isoform A (SALL4, Homo sapiens, UniProt Q9UJQ4, residues 1-1053)
Chain of UniProt Q9UJQ4 (whole entry, looked up): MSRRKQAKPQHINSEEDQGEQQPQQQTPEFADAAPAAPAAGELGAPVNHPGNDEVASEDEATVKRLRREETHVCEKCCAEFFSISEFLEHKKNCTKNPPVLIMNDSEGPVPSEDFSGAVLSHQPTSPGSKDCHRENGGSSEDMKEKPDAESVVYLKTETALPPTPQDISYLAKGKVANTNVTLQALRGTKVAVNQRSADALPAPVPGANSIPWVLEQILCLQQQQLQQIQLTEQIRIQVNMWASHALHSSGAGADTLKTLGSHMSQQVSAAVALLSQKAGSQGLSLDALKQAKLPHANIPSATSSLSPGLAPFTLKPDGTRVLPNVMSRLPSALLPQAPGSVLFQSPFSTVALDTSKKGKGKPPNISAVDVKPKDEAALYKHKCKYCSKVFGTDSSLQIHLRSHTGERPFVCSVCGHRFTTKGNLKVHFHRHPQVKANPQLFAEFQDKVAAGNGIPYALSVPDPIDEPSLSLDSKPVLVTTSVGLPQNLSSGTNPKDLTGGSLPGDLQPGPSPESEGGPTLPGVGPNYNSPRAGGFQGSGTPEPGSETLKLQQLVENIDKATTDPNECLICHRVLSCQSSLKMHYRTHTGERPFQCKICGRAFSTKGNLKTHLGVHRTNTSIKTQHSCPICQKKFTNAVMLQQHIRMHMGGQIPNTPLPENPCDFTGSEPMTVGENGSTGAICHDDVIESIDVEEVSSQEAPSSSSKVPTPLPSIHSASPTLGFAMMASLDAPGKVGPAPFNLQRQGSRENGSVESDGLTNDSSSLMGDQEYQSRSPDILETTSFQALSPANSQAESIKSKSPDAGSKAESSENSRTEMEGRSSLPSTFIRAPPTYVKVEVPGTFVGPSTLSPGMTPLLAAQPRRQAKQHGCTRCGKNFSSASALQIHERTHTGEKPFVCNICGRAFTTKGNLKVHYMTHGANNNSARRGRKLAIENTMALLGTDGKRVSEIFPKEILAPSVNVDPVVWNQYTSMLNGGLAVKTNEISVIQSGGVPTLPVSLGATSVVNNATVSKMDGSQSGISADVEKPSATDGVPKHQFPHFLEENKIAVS
Method: universal PBM
Molecule type: double-stranded DNA, one strand shown
Sample: in vitro
Concentration: 600 nM
Setting: 8-mer, flanks averaged, mean of replicates
Reading: higher = stronger binding
`CGACCTCG` gave an E-score of -0.168.
`GAATTGCA` gave an E-score of 0.0892.
With `GTCCCCAC` the E-score was -0.34.
For `CAGAGTAG`, the E-score was -0.0612.
The E-score of `CCCCTATA` is reported as 0.0743.
With `AGTTAATC` the E-score was 0.165.
With `AGGCGAAG` the E-score was -0.116.
For `ATGTCAGA`, the E-score was 0.162.

Single results of other studies
Starting sequence: PafA, mature enzyme, eGFP fusion (Elizabethkingia meningoseptica, UniProt Q9KJX5); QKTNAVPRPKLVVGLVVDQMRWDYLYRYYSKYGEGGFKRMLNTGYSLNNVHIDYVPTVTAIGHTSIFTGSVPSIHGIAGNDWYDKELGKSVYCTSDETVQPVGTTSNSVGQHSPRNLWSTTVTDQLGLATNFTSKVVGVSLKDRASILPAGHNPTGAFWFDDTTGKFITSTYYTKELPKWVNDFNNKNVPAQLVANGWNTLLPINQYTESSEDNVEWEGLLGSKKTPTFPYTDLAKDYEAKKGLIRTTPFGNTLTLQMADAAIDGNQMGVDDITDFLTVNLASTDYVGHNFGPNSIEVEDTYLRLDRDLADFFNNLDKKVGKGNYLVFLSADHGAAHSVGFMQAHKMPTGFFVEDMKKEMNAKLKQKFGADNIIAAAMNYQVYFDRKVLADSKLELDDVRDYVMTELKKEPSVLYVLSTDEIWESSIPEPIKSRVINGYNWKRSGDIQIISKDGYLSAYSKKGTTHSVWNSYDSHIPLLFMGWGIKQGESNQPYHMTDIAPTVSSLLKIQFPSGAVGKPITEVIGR
`V287G`: “oxyanion analog dissociation constant” 1.15 µM (vanadate, free oxyanion; microfluidic competitive inhibition; in vitro, cell-free expressed; not given, derived from inhibition constants, unchanged parent 676 nM; lower = stronger binding).

Excerpt of the above (set 1):
For `N11S`, “normalised enrichment score” read -0.145.
`D10Q` — result for “normalised enrichment score”: 0.365.
Under “normalised enrichment score”, `T1F` is recorded as -0.0336.
